Published values of several laboratories.
Every numbered part comes from another study and shows a few of its results, in no order.

Set 1
Substance: PhoQ, residues 284 288 289 292 302 303 NLMGRA
Method: Sort-seq
Refers to: YFP reporter
Matrix: E. coli
Notes: PhoQ-PhoP variant library
With: 10 µM Mg2+
Relative to: high Mg2+ state
Reading: higher = stronger signaling
PhoP, residues 12 14 15 18 19 TQALL (Escherichia coli, UniProt P23836) — fold induction: 11.9.
PhoP, residues 12 14 15 18 19 QYFSL (Escherichia coli, UniProt P23836) — fold induction: 3.83.
For PhoP, residues 12 14 15 18 19 NYFRM (Escherichia coli, UniProt P23836): fold induction read 5.19.

Set 2
Target: Histone acetyltransferase KAT6A, winged helix 1, GST fusion (KAT6A, Homo sapiens, UniProt Q92794, residues 1-85)
Method: protein binding microarray
Molecule type: double-stranded DNA, one strand shown
Matrix: in vitro
Tested at: not given
Notes: 8-mer, flanks averaged, mean of 2 arrays, mostly near background
Relative to: not given
Reading: higher = stronger binding
Target sequence (chain): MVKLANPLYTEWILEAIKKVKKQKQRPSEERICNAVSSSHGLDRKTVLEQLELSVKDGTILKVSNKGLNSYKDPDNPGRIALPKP
`GCGTGTAC` has an E-score of 0.186.
`GTCACGGA` has an E-score of 0.337.
`AGTTTATG` has an E-score of -0.209.
`ACGTCAGG` gave an E-score of -0.147.

Set 3
Target: Interferon regulatory factor 7, full length, phosphomimetic (IRF7, Homo sapiens, UniProt Q92985, residues 1-503, S101K/S471D/S472D/S475D/S476D/S477D/S483D/S484D/S487D)
Method: protein-binding microarray
Molecule type: double-stranded DNA, one strand shown
Matrix: in vitro
Tested at: 250 nM
Notes: 60-bp whole probe
With: salmon DNA 0.4 mg/ml
Relative to: random background probes
Reading: higher = stronger binding
Constant ends, left off below: GCCTAGCAC … GTCTTGATTCGCTTGACGCTGCTG
Target sequence (chain): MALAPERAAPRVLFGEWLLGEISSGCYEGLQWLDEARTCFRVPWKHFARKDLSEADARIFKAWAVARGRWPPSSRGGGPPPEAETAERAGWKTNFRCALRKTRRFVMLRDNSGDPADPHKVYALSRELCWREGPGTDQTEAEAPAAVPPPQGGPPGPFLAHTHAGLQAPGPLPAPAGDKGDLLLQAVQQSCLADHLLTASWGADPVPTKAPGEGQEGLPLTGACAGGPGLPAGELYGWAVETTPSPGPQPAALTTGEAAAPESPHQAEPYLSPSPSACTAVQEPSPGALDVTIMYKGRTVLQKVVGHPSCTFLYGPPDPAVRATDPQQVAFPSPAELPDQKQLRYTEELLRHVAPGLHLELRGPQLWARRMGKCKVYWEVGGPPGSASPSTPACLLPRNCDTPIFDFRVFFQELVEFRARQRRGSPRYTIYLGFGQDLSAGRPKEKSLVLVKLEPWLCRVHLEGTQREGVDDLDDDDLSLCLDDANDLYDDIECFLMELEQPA
For `GACGATATCAGACGGGAGACGTGCTAG`, the log fluorescence was -0.135 z-score.
With `TTCTCCATGGGTATGGCCTAGTGCTAG` the log fluorescence was 0.26 z-score.
With `GACGTACTGGACACTGGGGACGTGCTA` the log fluorescence was -0.243 z-score.
`TTATGTTTCGGTTCCGGTTAGTGCTAG` gave a log fluorescence of 8.51 z-score.
With `GACGAGCTGAGTCTCGAGACGTGCTAG` the log fluorescence was -0.187 z-score.
For `GACGAACTGAAACTGGAGACGTGCTAG`, the log fluorescence was 1.08 z-score.

Set 4
Target: Prothrombin, mature alpha-thrombin (F2, Homo sapiens, UniProt P00734)
Method: aptamer microarray, sandwich
Molecule type: DNA with 2'F-ANA
Matrix: in vitro
Tested at: 200 nM
Notes: whole 15-mer aptamer, many near background
With: Cy3 exosite-II aptamer, 400 nM
Reading: higher = stronger binding
Strand: GGTTGGTGTGGTTGG
`2'F-ANA at 1 3 4 5 6 10 12 14 15`: “mean fluorescence intensity” 46.1 a.u.
Under “mean fluorescence intensity”, `2'F-ANA at 1 2 4 6 7 9 10 11 13 14 15` is recorded as 49.5 a.u.
Under “mean fluorescence intensity”, `2'F-ANA at 3 4 5 6 8 11 12 14 15` is recorded as 54.7 a.u.
Under “mean fluorescence intensity”, `2'F-ANA at 1 2 4 6 7 8 9 12 15` is recorded as 279 a.u.
For `2'F-ANA at 2 3 4 5 6 8 9 10 13`, “mean fluorescence intensity” read 55.1 a.u.
`2'F-ANA at 2 4 8 9 13 14`: “mean fluorescence intensity” 90.1 a.u.

For quick reference, copied from above (set 3):
With `GACGTACTGGACACTGGGGACGTGCTA` the log fluorescence was -0.243 z-score.
`TTATGTTTCGGTTCCGGTTAGTGCTAG` gave a log fluorescence of 8.51 z-score.
